Experimental data pooled from the literature.
Target: Cyclin-dependent kinase 19 (CDK19, Homo sapiens, UniProt Q9BWU1)
Sequence of UniProt Q9BWU1 (whole entry, looked up): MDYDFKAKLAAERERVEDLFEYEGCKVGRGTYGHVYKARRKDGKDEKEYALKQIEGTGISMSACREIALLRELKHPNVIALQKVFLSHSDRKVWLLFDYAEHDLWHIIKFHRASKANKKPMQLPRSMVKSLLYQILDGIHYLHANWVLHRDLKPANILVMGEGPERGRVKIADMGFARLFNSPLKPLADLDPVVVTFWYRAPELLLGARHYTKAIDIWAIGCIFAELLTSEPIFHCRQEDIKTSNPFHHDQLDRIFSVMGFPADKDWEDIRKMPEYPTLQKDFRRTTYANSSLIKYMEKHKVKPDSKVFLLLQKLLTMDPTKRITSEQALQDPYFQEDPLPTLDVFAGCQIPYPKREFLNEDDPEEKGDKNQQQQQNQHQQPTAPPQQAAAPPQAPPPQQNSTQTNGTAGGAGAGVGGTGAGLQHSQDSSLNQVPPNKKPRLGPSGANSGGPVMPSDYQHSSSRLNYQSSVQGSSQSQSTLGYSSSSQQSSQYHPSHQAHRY

The remaining binding of O=C(NCCCN1CCOCC1)c1ccc(Nc2nccc(-c3cc4ccccc4s3)n2)cc1 is reported as 96% (binding, KINOMEscan competition binding; 1 µM; reference: DMSO control).
Cc1cc([C@@H](C)Nc2ccccc2C(=O)O)c2nc(N3CCC(F)(F)CC3)c(C#N)c(=O)n2c1 has a remaining binding of 79% (KINOMEscan; 10 µM; reference: control).
With COc1cnc(Nc2cccc(S(N)(=O)=O)c2)nc1N1CCN(c2ccccc2)CC1 the remaining binding was 100% (KINOMEscan; 1 µM).
The remaining binding of O=C(c1ccc(Nc2ncc(Cl)c(-c3cc4ccccc4s3)n2)cc1)N1CCC(N2CCCC2)CC1 is reported as 100% (binding, KINOMEscan competition binding; 1 µM; reference: DMSO control).
The remaining binding of COc1cnc(Nc2cccc(S(N)(=O)=O)c2)nc1N1CCN(c2ccccc2)C(=O)C1 is reported as 98% (KINOMEscan; 1 µM).
C=CC(=O)N1CCC(COCC(=O)N2CCN(c3nc(-c4cnc(N)nc4C(F)F)nc(N4CCOC[C@@H]4C)n3)CC2)CC1 gave a remaining binding of 99% (KINOMEscan; 1 µM; reference: DMSO control).
COc1ncc2cc3ccccc3nc2c1C#N has a remaining binding of 91% (KINOMEscan; 5 µM; reference: DMSO).
The remaining binding of C=CC(=O)N1CCC(C(=O)NCC(=O)N2CCN(c3nc(-c4cnc(N)nc4C(F)F)nc(N4CCOCC4)n3)CC2)CC1 is reported as 99% (KINOMEscan; 1 µM).
With N#Cc1ccc(NC(=O)Nc2ccccc2)cc1 the remaining binding was 80% (KINOMEscan competition binding; 25 µM; reference: DMSO control, lower is stronger binding).
The remaining binding of CC(C)(C)c1ccc(-c2nc(CBr)nn2-c2cccc(O)c2)cc1 is reported as 56% (KINOMEscan; 10 µM).
O=C(c1ccc(Nc2nccc(-c3cc4ccccc4s3)n2)cc1)N1CCC(N2CCCC2)CC1 gave a remaining binding of 100% (binding, KINOMEscan competition binding; 1 µM; reference: DMSO control).
Cc1cc(S(=O)(=O)N[C@H]2CC[C@H](CN3CCN(c4ccc(C5CCC(=O)NC5=O)cc4F)CC3)CC2)ccc1Nc1ncc(C(F)(F)F)c(N2CCC[C@](C)(O)C2)n1 (stereo partly drawn) has a remaining binding of 94% (KINOMEscan; 1 µM).
With c1cncc(-c2cccc(Nc3nccc(NC4CCCCC4)n3)c2)c1 the remaining binding was 58% (KINOMEscan; 10 µM).
With O=C(Nc1c[nH]nc1C(=O)NC1CCNCC1)c1cc(F)cc(F)c1 the remaining binding was 100% (scanMAX; 1 µM; reference: untreated).
For C[C@]1(O)CCCN(c2nc(Nc3ccc(S(=O)(=O)N[C@H]4CC[C@H](CN5CCN(c6ccc(C7CCC(=O)NC7=O)cc6F)CC5)CC4)cc3F)ncc2C(F)(F)F)C1 (stereo partly drawn), the remaining binding was 100% (KINOMEscan; 1 µM).

A few entries again:
The remaining binding of CC(C)(C)c1ccc(-c2nc(CBr)nn2-c2cccc(O)c2)cc1 is reported as 56% (KINOMEscan; 10 µM).
With O=C(Nc1c[nH]nc1C(=O)NC1CCNCC1)c1cc(F)cc(F)c1 the remaining binding was 100% (scanMAX; 1 µM; reference: untreated).
